Experimental data of several laboratories.
Lines come from different studies, so protocols differ. “And” joins repeats or separate records; there may be more than shown. ± gives the spread as reported.
B1: NHEJ1 1-224 L115A (Homo sapiens, UniProt Q9H9Q4); sequence looked up; chain MEELEQGLLMQPWAWLQLAENSLLAKVFITKQGYALLVSDLQQVWHEQVDTSVVSQRAKELNKRLTAPPAAFLCHLDNLLRPLLKDAAHPSEATFSCDCVADALILRVRSELSGAPFYWNFHCMLASPSLVSQHLIRPLMGMSLALQCQVRELATLLHMKDLEIQDYQESGATLIRDRLKTEPFEENSFLEQFMIEKLPEACSIGDGKPFVMNLQDLYMAVTTQ
B2: UHRF1 RING-UBL 675-793 (UniProt Q96T88); chain SLTAQQSSLIREDKSNAKLWNEVLASLKDRPASGSPFQLFLSKVEETFQCICCQELVFRPITTVCQHNVCKDCLDRSFRAQVFSCPACRYDLGRSYAMQVNQPLQTVLNQLFPGYGNGRGGSSGGSSGGSSGGSSMWIQVRTMDGRQTHTVDSLSRLTKVEELRRKIQELFHVEPGLQRLFYRGKQMEDGHTLFDYEVRLNDTIQLLVRQS
B3: NRP1 (Arabidopsis thaliana); chain MVADKSKKSKIEEKGEEENLEQIDAELVLSIEKLQEIQDDLEKINEKASDEVLEVEQKYNVIRKPVYDKRNEVIQSIPGFWMTAFLSHPALGDLLTEEDQKIFKYLNSLEVEDAKDVKSGYSITFHFTSNPFFEDAKLTKTFTFLEEGTTKITATPIKWKEGKGLPNGVNHDDKKGNKRALPEESFFTWFTDAQHKEDAGDEIHDEVADIIKEDLWSNPLTYFNNDADEEDFDGDDDGDEEGEEDDDDEEEEDGEE
B4: Bcl2l11 (Mus musculus, UniProt O54918-2); chain MAKQPSDVSSECDREGGQLQPAERPPQLRPGAPTSLQTEPQDRSPAPMSCDKSTQTPSPPCQAFNHYLSAMASIRQSQEEPEDLRPEIRIAQELRRIGDEFNETYTRRVFANDYREAEDHPQMVILQLLRFIFRLVWRRH
B5: EFR3A 721-791 (Homo sapiens, UniProt Q14156); chain SNTEEITFEALKKAIDTSGMEEQEKEKRRLVIEKFQKAPFEEIAAQCESKANLLHDRLAQILELTIRPPPS
B6: ATG9 1-255 (Saccharomyces cerevisiae, UniProt Q12142); sequence looked up; chain MERDEYQLPNSHGKNTFLSRIFGLQSDEVNPSLNSQEMSNFPLPDIERGSSLLHSTNDSREDVDENDLRVPESDQGTSTEEEDEVDEEQVQAYAPQISDGLDGDHQLNSVTSKENVLETEKSNLERLVEGSTDDSVPKVGQLSSEEEEDNEFINNDGFDDDTPLFQKSKIHEFSSKKSNTIEDGKRPLFFRHILQNNRPQRDTQKLFTSSNAIHHDKDKSANNGPRNINGNQKHGTKYFGSATQPRFTGSPLNNT
B7: IL18 37-193 S43C/C74S/S86C/C104S/C112S/C163S (Homo sapiens, UniProt Q14116); chain YFGKLECKLSVIRNLNDQVLFIDQGNRPLFEDMTDSDSRDNAPRTIFIICMYKDSQPRGMAVTISVKSEKISTLSSENKIISFKEMNPPDNIKDTKSDIIFFQRSVPGHDNKMQFESSSYEGYFLASEKERDLFKLILKKEDELGDRSIMFTVQNED
B8: DVL2 PDZ domain (Homo sapiens, UniProt O14641); chain NIITVTLNMEKYNFLGISIVGQSNERGDGGIYIGSIMKGGAVAADGRIEPGDMLLQVNDMNFENMSNDDAVRVLRDIVH
B9: Pard6b 1-371 (Mus musculus, UniProt Q9JK83); chain MNRGHRHGASSGCLGTMEVKSKFGAEFRRFSLERSKPGKFEEFYGLLQHVHKIPNVDVLVGYADIHGDLLPINNDDNYHKAVSTANPLLRIFIQKKEEADYSAFGTDTLIRKKNMLSNVLRPDNHRKKPHIVISMPQDFRPVSSIIDVDILPETHRRVRLYKYGTEKPLGFYIRDGSSVRVTPHGLEKVPGIFISRLVPGGLAQSTGLLAVNDEVLEVNGIEVSGKSLDQVTDMMIANSRNLIITVRPANQRNNVVRNSRTSGSSSQSTDNSLLGFPQQVEASFEPEDQDSDEDDIIIEDSGEPQQIPKATPAQSLESLTQIELSFESGQNGFSPPQDTSLVPVPGSLDTELESRAPDQKLLEEDGTIITL
B10: SMARCD1 SWIFT domain (Homo sapiens); chain IKQKRKLRIFISNTFNPAKSDAEDGEGTVASWELRVEGRLLEDSALSKYDATKQKRKFSSFFKSLVIELDKDLYGPDNHLVEWHRTATTQETDGFQVKRPGDVNVRCTVLLMLDYQPPQFMPPEPIIINHVISVDPNDQKKTACYDIDVEVDDTL
B11: TNFSF4 51-183 (Homo sapiens, UniProt P23510); sequence looked up; chain QVSHRYPRIQSIKVQFTEYKKEKGFILTSQKEDEIMKVQNNSVIINCDGFYLISLKGYFSQEVNISLHYQKDEEPLFQLKKVRSVNSLMVASLTYKDKVYLNVTTDNTSLDDFHVNGGELILIHQNPGEFCVL
B12: GP1BA ligand-binding domain 17-306 (Homo sapiens, UniProt P07359); RED-NHS dye label; sequence looked up; chain HPICEVSKVASHLEVNCDKRNLTALPPDLPKDTTILHLSENLLYTFSLATLMPYTRLTQLNLDRCELTKLQVDGTLPVLGTLDLSHNQLQSLPLLGQTLPALTVLDVSFNRLTSLPLGALRGLGELQELYLKGNELKTLPPGLLTPTPKLEKLSLANNNLTELPAGLLNGLENLDTLLLQENSLYTIPKGFFGSHLLPFAFLHGNPWLCNCEILYFRRWLQDNAENVYVWKQGVDVKAMTSNVASVQCDNSDKFPVYKYPGKGCPTLGDEGDTDLYDYYPEEDTEGDKVR

The Kd of `B1 (NHEJ1 1-224 L115A)` is reported as 0.16 µM (XRCC4 (Homo sapiens, UniProt Q13426); BLI).
The Kd of `HSP20 (Thermococcus kodakaraensis)` is reported as 36.7 µM and 18.6 µM (pol (Pyrococcus furiosus, UniProt P61875); NMR titration).
The Kd of `B2 (UHRF1 RING-UBL 675-793)` is reported as 3.1 µM (UBE2D1 fragment (Homo sapiens); ITC; designed binder).
For `colistin`, the MIC was 8 µg/mL (Pseudomonas aeruginosa; broth microdilution; clinical isolate RKI 483/15-1).
For `NLFDDNIDIFADLT (WASHC2A 1261-1274 (Homo sapiens))`, the Kd was 38.4 ± 1.34 µM (SNX27 fragment (Homo sapiens); ITC; peptide).
For `B3 (NRP1)`, the Kd was 28.9 µM (H4 fragment (Xenopus laevis); SPR).
The Kd of `B4 (Bcl2l11)` is reported as 2 µM (MCL1 (Homo sapiens, UniProt Q07820); FRET or BRET; not purified).
For `B5 (EFR3A 721-791)`, the Kd was 4.3e-05 ± 1.4e-05 µM (PI4KA/TTC7B/FAM126A TTC7B/FAM126A; BLI).
The Kd of `Notch ankyrin domain T50A/E52A/R60A/R107A (Drosophila)` is reported as 12.7 µM (dx (Drosophila melanogaster, UniProt Q23985); AUC).
For `B6 (ATG9 1-255)`, the Kd was 3.2 µM (ATG23 Y16E (UniProt Q06671); BLI).
With `B7` the Kd was 9e-06 µM (IL18BP (Homo sapiens, UniProt O95998); SPR).
For `AGRRSSYLLAIT (ARHGAP23 GBR (Homo sapiens); phosphoserine)`, the Kd was 0.65 µM (DLG4 GK domain (Rattus norvegicus); ITC; peptide).
For `Histone H4 fragment (Homo sapiens)`, the Kd was > 1000 µM (YEATS4 19-159 (Homo sapiens, UniProt O95619); ITC; added: histone H3 peptide).
With `11-deoxycorticosterone` the Kd was 4.69 µM (human CYP11B2; stopped-flow kinetic modelling; 3-state conformational selection model, added: equimolar adrenodoxin).
With `B8 (DVL2 PDZ domain)` the Kd was 28 µM (FZD7 peptide (Homo sapiens, UniProt O75084); fluorescence anisotropy).
`DHEYVLTESFLDSGAFPNHDVIDHNKMLNSNYNGNGILNKGGVLGLVKEYYKKSDVGR (ATG9 940-997 (Saccharomyces cerevisiae, UniProt Q12142); sequence looked up)` gave a Kd of 1.72 µM (ATG23 Y16E (Saccharomyces cerevisiae, UniProt Q06671); BLI).
`B9 (Pard6b 1-371)` gave a Kd of 0.041 µM (LLGL2 13-978, dephosphorylated (Homo sapiens, UniProt Q6P1M3); BLI).
The Kd of `KLLMIIHDRREFAKFEKEKMNAKWDTGENPIYKSPVTTVVNPKYEGK (ITGB1 752-798 A786P (Homo sapiens, UniProt P05556-1); sequence looked up)` is reported as 127 µM (Tln2 312-408 (Mus musculus, UniProt Q71LX4); NMR titration).
For `PRTARHAPAVRKFSPDLKLLKDVKISVSFTE (DGCR8(96-126), SUMO-tagged)`, the Kd was 34.2 ± 14 µM (Enhancer of rudimentary homolog (Homo sapiens, UniProt P84090, L64A); binding, isothermal titration calorimetry; peptide; 293 K, added: DGCR8 peptide, SUMO-tagged).
For `ANK1 fragment (Rattus norvegicus)`, the Kd was 0.444 µM (ATP2A1 (Oryctolagus cuniculus, UniProt P04191); far-Western).
The Kd of `INS A and B chains (Homo sapiens)` is reported as 0.293 µM (IGF1R (Homo sapiens, UniProt P08069); competition binding; added: tracer).
With `BzATP` the normalized current was 0.0123 and 0.023 and 0.056 (P2X purinoceptor 7 (P2rx7, Rattus norvegicus, UniProt Q64663, Q143A); ion current, agonist, two-electrode voltage clamp; Xenopus oocytes; 0.14 µM).
`FGA (Homo sapiens, UniProt P02671)` — result for cross-linked residues: “K620 to K349” (RTKN2 (Homo sapiens, UniProt Q8IZC4); cross-linking MS; added: DSSO).
The tissue uptake of `FNA / CGLSGLGVA-NH2 ([18F]FNA-labelled, C-amide)` is reported as 5.39 %ID/g (ex vivo gamma counting; peptide, healthy mouse, kidney; 60 min post injection).
`KDR (Homo sapiens, UniProt P35968)` has a Kd of 0.00025 µM (ramucirumab IgG, PBS-stressed 14 d, Fc heavy chain Asn deamidation; SPR).
The Kd of `B10 (SMARCD1 SWIFT domain)` is reported as 4.46 ± 2.62 µM (POU2F3 (UniProt Q9UKI9); MST).
With `VWF fragment (Homo sapiens)` the Kd was 0.0021 µM (APOB/LDL apoB100 (Homo sapiens); ELISA).
For `B11 (TNFSF4 51-183)`, the Kd was 72 µM (TNFRSF4 29-170 D124A (Homo sapiens, UniProt P43489); SPR).
The Kd of `B12` is reported as 0.0168 µM (VWF fragment (Homo sapiens); MST).

Repeated from above:
For `PRTARHAPAVRKFSPDLKLLKDVKISVSFTE (DGCR8(96-126), SUMO-tagged)`, the Kd was 34.2 ± 14 µM (Enhancer of rudimentary homolog (Homo sapiens, UniProt P84090, L64A); binding, isothermal titration calorimetry; peptide; 293 K, added: DGCR8 peptide, SUMO-tagged).
`KDR (Homo sapiens, UniProt P35968)` has a Kd of 0.00025 µM (ramucirumab IgG, PBS-stressed 14 d, Fc heavy chain Asn deamidation; SPR).
For `B11 (TNFSF4 51-183)`, the Kd was 72 µM (TNFRSF4 29-170 D124A (Homo sapiens, UniProt P43489); SPR).
The Kd of `B2 (UHRF1 RING-UBL 675-793)` is reported as 3.1 µM (UBE2D1 fragment (Homo sapiens); ITC; designed binder).
With `B8 (DVL2 PDZ domain)` the Kd was 28 µM (FZD7 peptide (Homo sapiens, UniProt O75084); fluorescence anisotropy).
